Results pooled from the literature.
Each numbered part is a random draw from the data of one study; scales do not carry over between parts.

Series 1
Target: RNA binding protein fox-1 homolog 2, RRM domain, GST-SBP tag (RBFOX2, Homo sapiens, UniProt O43251-10, residues 100-194)
Method: RNA Bind-n-Seq
Form: RNA
Matrix: in vitro
Concentration: 365 nM
Setting: natural RNA segment, single round, ends assumed
Relative to: no-protein control
Direction: higher = stronger binding
Shared flanks, not repeated: GGGAGUUCUACAGUCCGACGAUC … UGGAAUUCUCGGGUGCCAA
Residues (chain): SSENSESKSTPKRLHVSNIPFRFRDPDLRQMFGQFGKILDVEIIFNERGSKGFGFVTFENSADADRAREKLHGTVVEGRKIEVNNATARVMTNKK
Strand | RBNS enrichment (R)
AUGUAAAAUAAAAAUAAAUAACUCUUUUAAAAUAAUCAUUUUUUUAAAAAUGGACUUGCAAACUCAUAGUACCUGGCUGCACACGUCCUCGCCUCUGUUUGUCUGGCUCU | 0.73
CUGCCCUAGUUAGGACAGACAUGCUUGUCUCUCCUAGGUAAAAGGUCAGGUCCCCGAGUCAUUUCUGUAGUGAAGAGCAGAGUUCCGUGUCUACACUGGCAACUAGGAAC | 0.334
UGGAAGCAAGUACUGCAUUUCCUAUGCAACAAAAAAGGAAAAAUAAAAAAUUGCUAAUGCUAUGGAAGCUGUGUCAUCAUUUGCUUUACAGCAUGCCUGGGUGAUUGAGU | 2.9
GGUUGGAGGGGCCUCCCUCUGGCUUCUGCAUCUGCGCCAGCAAACAUCACUGCCGUUGGUCUCUCAUGACUUAACUGGCUUCCCUCUGCUGCUGCCUUGGCUUCCUCCUA | 0.962
GGCCCCCAAGUUCCCUAGCAAGCUGCCAAACCAAAACGGGCACCACCAGCUCAGCUGAGGCAUCCCAGCCAGGCAGGACCCUUGAGGGCCGCUGUAUCCAUGGUGAUGGG | 0.258
AGUAUUAUAGAAAUUUAUCCUAGCAAGACUUUACAAGAUAGGAUCAAAUUCUAAUGGAAUUGAGCCGGUUUCUUAUCCUAAAUGUUUCCUCCCUUUUUACAAUCUCUGUC | 0.817
ACUUUUGUACUAAGUAAGUGCUCCCAAGUCUUUUACUUGCUCUUCACAGCAACCCUAAUAGGUAUCUCCAUUUUACAUAGGUAAAAACUGAGGCUACAAACAAUCUAUGG | 0.673
UACUUAAUUGGCUACUUUAUUUAACAAUGUUUUAGGGAUGUCGUUCAGUAUCUUUUCCAGUGUUUGCUACCUAAGAUCCCAUUGGGGUAAAAAUAUAACUCAGAUUUCAC | 0.459

Series 2
Target: Sal-like protein 4, full length isoform A (SALL4, Homo sapiens, UniProt Q9UJQ4, residues 1-1053)
Sequence of UniProt Q9UJQ4 (whole entry, looked up): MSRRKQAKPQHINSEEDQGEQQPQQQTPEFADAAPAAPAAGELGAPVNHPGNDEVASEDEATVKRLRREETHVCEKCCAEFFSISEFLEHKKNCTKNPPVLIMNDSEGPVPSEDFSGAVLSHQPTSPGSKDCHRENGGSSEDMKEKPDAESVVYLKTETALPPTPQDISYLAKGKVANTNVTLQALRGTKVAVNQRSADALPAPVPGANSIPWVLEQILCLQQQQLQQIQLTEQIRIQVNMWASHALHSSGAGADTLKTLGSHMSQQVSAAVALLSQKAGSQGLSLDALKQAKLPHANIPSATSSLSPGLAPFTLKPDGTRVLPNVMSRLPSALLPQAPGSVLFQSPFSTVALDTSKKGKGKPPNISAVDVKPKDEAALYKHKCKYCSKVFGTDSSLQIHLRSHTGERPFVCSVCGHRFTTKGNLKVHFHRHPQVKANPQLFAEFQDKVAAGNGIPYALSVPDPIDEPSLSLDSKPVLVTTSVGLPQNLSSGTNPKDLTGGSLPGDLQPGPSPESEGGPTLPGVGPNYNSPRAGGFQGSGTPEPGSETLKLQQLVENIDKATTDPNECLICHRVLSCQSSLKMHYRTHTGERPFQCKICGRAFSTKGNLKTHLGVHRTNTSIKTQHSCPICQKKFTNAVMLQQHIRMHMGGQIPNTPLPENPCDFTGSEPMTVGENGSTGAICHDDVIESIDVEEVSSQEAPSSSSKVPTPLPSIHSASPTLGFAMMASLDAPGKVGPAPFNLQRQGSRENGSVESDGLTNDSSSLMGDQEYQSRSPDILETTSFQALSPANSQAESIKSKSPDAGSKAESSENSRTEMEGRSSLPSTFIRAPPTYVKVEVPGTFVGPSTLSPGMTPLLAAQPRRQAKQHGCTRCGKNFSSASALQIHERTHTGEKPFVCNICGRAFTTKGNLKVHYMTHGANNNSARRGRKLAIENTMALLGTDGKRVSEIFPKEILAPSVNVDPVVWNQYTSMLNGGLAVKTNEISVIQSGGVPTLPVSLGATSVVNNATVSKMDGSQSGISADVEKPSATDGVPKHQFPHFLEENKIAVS
Method: universal PBM
Form: double-stranded DNA, one strand shown
Matrix: in vitro
Concentration: 600 nM
Setting: 8-mer, flanks averaged, mean of replicates
Direction: higher = stronger binding
Strand | E-score
CCAGGTTA | -0.0593
ACCGGGGA | -0.383
ATCTGGCG | -0.0757
AATCTGTA | 0.144
AGAGAACT | -0.0687
GGATTCCC | -0.386
AGAAGGGA | -0.259
GATCGATC | -0.214
AAGAACTA | 0.156
ACCGTTAT | 0.178
GCTACGAC | -0.0714
AGTGGTAG | -0.0964
ATGTTGGC | 0.0475
CGCACTCC | -0.206
ATCAATGC | 0.0114
ATAAACGA | 0.36
AATGCAAC | 0.173
CCTCCTCA | -0.216
ATGACAAC | 0.135
CACCGGAA | 0.0573
CAGGTGCA | -0.14
GCGGGAAA | -0.0769
ATCTGGTG | -0.0484
ATATCTCG | 0.272
GCTCGGTA | -0.107

Series 3
Target: Centromere-binding protein 1, full length, His-tagged (CBF1, Saccharomyces cerevisiae, UniProt P17106, residues 1-351)
Sequence of UniProt P17106 (whole entry, looked up): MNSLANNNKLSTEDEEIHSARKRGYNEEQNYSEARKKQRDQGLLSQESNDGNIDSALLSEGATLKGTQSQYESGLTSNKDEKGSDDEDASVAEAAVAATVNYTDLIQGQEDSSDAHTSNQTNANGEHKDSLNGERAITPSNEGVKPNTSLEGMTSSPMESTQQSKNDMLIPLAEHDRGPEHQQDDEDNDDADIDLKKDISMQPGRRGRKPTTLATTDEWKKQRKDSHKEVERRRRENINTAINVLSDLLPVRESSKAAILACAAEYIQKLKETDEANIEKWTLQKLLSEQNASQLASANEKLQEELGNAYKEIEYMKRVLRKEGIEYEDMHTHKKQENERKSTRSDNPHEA
Method: competition protein-binding microarray
Form: double-stranded DNA, one strand shown
Matrix: in vitro
Concentration: 2 µM
Setting: whole 60-bp probe, lowest competitor level
Added: Pho4 competitor, 0.05 µM
Direction: higher = stronger binding
Shared flanks, not repeated: … GTCTTGATTCGCTTGACGCTGCTG
Strand | fluorescence intensity
TGGTTAACTAAACGTAATGTGACAGTATCATTGAAA | 106 a.u.
AAGGCAACTTCCCTACACGTTGAAGTGCCAATTTTT | 70.9 a.u.
CTCAGTGGTTAGAGCTTCGTGCTTTTAGCAACATTC | 84.3 a.u.
AAGAAGGCATTCCTCCACGTGACGGAAGACTTTGGA | 2240 a.u.
CACCGATTTGGTAATGCCGTGATGGAACCTCGAGGA | 67.3 a.u.
TAAGGTACTATCTTTGACGTGGCAATGCGGGATATT | 83.1 a.u.
CTAACGAAGGTTTGTGCAGTGGGTGACAAGCCAAGT | 71.4 a.u.
ATCGTTTTGTTGACCAGCATGATAAATTCTGGAGCC | 97.4 a.u.
TCCCGCTATTTCGACCACGTGGAATCATTTTCGGGT | 1830 a.u.
TTTGAAAAAACCCATCACGCAGTGGCCGATGTAATT | 99.3 a.u.
AAGAGAAGGACCCGACACGGGTCCCTCTCGATATTA | 55.4 a.u.
GTCTTGTCTCATTGCCCTGTGGGTGTCCCCACTTCA | 71.3 a.u.
TGCTTCTTTGAAAAGCACATGCCGTTTCACCACAGG | 114 a.u.
GCACCATATTTTAGTTCCGTGATGGTCAAGAATTTT | 129 a.u.
TGCTCTCGAAGCCGTCACGTGCGGATCTAGGCCTGC | 3590 a.u.
ATTTCCCACTTCAACAACGTGCAATAATGGCTCAAT | 126 a.u.
TCGCATCCAGGCACACCCGTGTCCTCTTCTTTAATG | 73 a.u.
CATACCCAACCTTGGCCCGTGGGTGAAGATATTTGT | 71.6 a.u.
CAGTGAGATTACGCAGCCGTGCGATTCAGGGACAGA | 55.1 a.u.

Series 4
Target: Fragile X messenger ribonucleoprotein 1, C-terminal low-complexity region (Fmr1, Mus musculus, UniProt P35922)
Method: RNA Bind-n-Seq
Form: RNA
Matrix: in vitro
Concentration: 200 nM
Setting: whole 134-nt RNA, ends assumed
Added: 150 mM LiCl
Relative to: input library
Direction: higher = stronger binding
Library: 7-deaza-guanosine replaces G
Shared flanks, not repeated: GGGAGUUCUACAGUCCGACGAUC … UGGAAUUCUCGGGUGUCAAGG
Strand | log2 enrichment
UAACUUUAGAGGAGGAUCUGAUGGAUAUGGCAGUGGACGUGGAUUUGGGGAUGGCUAUAAUGGGUAUGGACGAGGACCUGGAGGUGGCAA | 0.0965
GCAGGAAGUAAAAACAAAUGGAAAUGCUUCGGAGAGUGGCAGGGGUGGGGGUUGCUAAGGAAAGGGUGGGAUGGGAGUGGGUAAAGAGUU | 1.45
CAACGUUGAAAUGGAUUGGGUGUUGAAGCAUACUGGUCCAAAUAGUCCUGACACGGCCAAUGAUGGCUUUGUACGGCUUAGAGGACUUCC | -3.14
UCAAGUCCUGUGCUACACAUCGUAUGUACCGAAUCGGGUUUGGGUUUGGUUUGGAAAGUAUUAUGUUACGCCGUUCGGAUCUGCACUUCC | -0.828
CAAGUCCUGUGCUACACAUCGUAUGUACCGAAUCGGAAAAAGGUUUGGAAAAAGGAAAGUAUUAUGUUACGCCGUUCGGAUCUGCACUUC | -1.75
UCAAGUCCUGUGCUACACAUCGUAUGUACCGAAUCGGAAAAAGGUUUGGUUUGGAAAGUAUUAUGUUACGCCGUUCGGAUCUGCACUUCC | -1.95
CUGUGCUACACAUCGUAUGUACCGAAUCGGGGAAAAAGGGGUUUUUGGGGUUUUUUUGGGGAAAGUAUUAUGUUACGCCGUUCGGAUCUG | -1.24
CCUGUGCUACACAUCGUAUGUACCGAAUCGGGCCCCCCGGGGCCCCCCGGGCCCCCCGGGGAAAGUAUUAUGUUACGCCGUUCGGAUCUG | -2.85
